# Assay results from different studies.
# Each line is one published result; not all experiments were run side by side. Several values in a cell are separate wells, animals, samples, runs or records. Numbers after ± are the reported error.
# Chain of UniProt Q9HC98 (whole entry, looked up): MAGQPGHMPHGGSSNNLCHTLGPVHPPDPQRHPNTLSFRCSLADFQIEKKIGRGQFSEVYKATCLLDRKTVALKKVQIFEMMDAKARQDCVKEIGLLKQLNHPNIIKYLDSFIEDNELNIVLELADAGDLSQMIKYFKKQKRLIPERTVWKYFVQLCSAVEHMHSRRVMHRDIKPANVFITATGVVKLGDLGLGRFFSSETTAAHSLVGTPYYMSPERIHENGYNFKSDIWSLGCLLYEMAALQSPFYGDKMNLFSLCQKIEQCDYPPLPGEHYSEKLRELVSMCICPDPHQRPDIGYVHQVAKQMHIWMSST
SMILES,target or system,test,test system,setting,scale,endpoint,value
O=C1CO[C@H](CNC(=O)C2(c3ccc(Cl)cc3)CC2)CN1C1Cc2ccccc2C1,human CCR6 thermostabilised,thermal shift,,10 µM,,ΔTm,3.2 °C and 4.1 °C and 4 °C and 3.3 °C and 4.8 °C
COC1CN([C@H]2CC[C@H]([C@@]3(C)Oc4c(Cl)cc(C(=O)NCc5c(SC)cc(C)[nH]c5=O)c(C)c4O3)CC2)C1,,"RNA-seq, refers to: ACP5 mouse homolog","mouse, HT-1376 xenograft, whole blood",dose not given,reference: vehicle,log2 fold change,0.431
C[n+]1ccc(/C=N/NC(=O)c2cncc(C(=O)N/N=C/c3cc[n+](C)c4ccccc34)n2)c2ccccc21,telomeric antiparallel G-quadruplex DNA,UV melting,,"6 µM, 10 mM potassium, with: DNA 3 µM",,delta Tm,21.3 °C
Cc1cn(CC(=O)N(CC(=O)N[C@H]2COC[C@@H]2N(CC(=O)NCCOCCOCC(N)=O)C(=O)Cn2cnc3c(N)ncnc32)[C@H]2COC[C@@H]2NC(=O)CN(C(=O)Cn2cnc3c(N)ncnc32)[C@H]2COC[C@@H]2NC(=O)CN(C(=O)Cn2cnc3c(=O)[nH]c(N)nc32)[C@H]2COC[C@@H]2NC(=O)CN(C(=O)Cn2cc(C)c(=O)[nH]c2=O)[C@H]2COC[C@@H]2NC(=O)CN(C(=O)Cn2cnc3c(=O)[nH]c(N)nc32)[C@H]2COC[C@@H]2NC(=O)CN(C(=O)Cn2cc(C)c(=O)[nH]c2=O)[C@H]2COC[C@@H]2NC(=O)CN(C(=O)Cn2cnc3c(N)ncnc32)[C@H]2COC[C@@H]2NC(=O)CN(C(=O)Cn2cnc3c(=O)[nH]c(N)nc32)[C@H]2COC[C@@H]2N)c(=O)[nH]c1=O,mismatched DNA TT,"duplex formation, UV melting",,,reference: complementary DNA,ΔTm,-18.8 °C
CCN(CC)CC(=O)Nc1cccc(-n2cc(-c3ccc4ccc(-c5cn(-c6cccc(NC(=O)CN(CC)CC)c6)nn5)cc4c3)nn2)c1,RCC4,"PCR array, refers to: VEGFC",,"5 x IC50, 6 h, normoxia",reference: untreated,fold regulation,-1.61 fold
Cc1[nH]nc2c1N=C(c1ccccc1Cl)c1cnc(N3CCOCC3)cc1N2,"GABAA receptor muscimol site, rat",radioligand binding,brain,10 µM,,inhibition,-5%
CNS(=O)(=O)Nc1nccc(Cc2c(C)c3ccc(Oc4ncccc4F)cc3oc2=O)c1F,SK-MEL-30,cell viability,,7 days,,IC50,0.00279 µM
c1ccc(-c2n[nH]cc2-c2ccnc3ccccc23)nc1,CAK1 (Candida albicans),"kinase binding, MIB/MS competition",Candida albicans lysate,10 µM,reference: DMSO,log2 fold change,-0.12
CC1(C)OCCc2cc(C(=O)N3CCC(c4nc(-c5ccccc5)n[nH]4)CC3)ccc21,"FSP1, ancestral","resazurin reduction, inhibitor",,"pH 7.2, with: NADH, resazurin",,IC50,0.382 ± 0.07 µM
CC(C)=CCc1cc(C(=O)/C=C/c2ccc(O)cc2)c(O)cc1O,,"phase I metabolism, substrate",minipig liver microsomes,,,Km,22.4 ± 4.58 µM
C[n+]1cc(NC(=O)c2ccc3ccc4ccc(C(=O)Nc5cc6ccccc6[n+](C)c5)nc4c3n2)cc2ccccc21,telomeric antiparallel G-quadruplex DNA,UV melting,,"6 µM, 10 mM potassium, with: DNA 3 µM",,delta Tm,> 40 °C
CCC(=O)N(C)c1ccc(Cl)c(Cl)c1,alpha 2 adrenergic receptor,"binding, radioligand binding",,10 µM,,inhibition,< 10%
Nc1ncc(-c2cc(-c3cnn(CC(F)(F)F)c3)ncc2F)nc1C(=O)NC1CNCC(F)C1 (stereo not shown),ERK8,KINOMEscan,,1 µM,reference: DMSO control,remaining binding,12%
Fc1ccc(Nc2nc(NC3CCCCC3)c3ccccc3n2)cc1F,β2AR/β1AR ICL1 chimera,"β-arrestin2 recruitment, antagonist, BRET",,,reference: isoprenaline maximal response,maximal inhibition,3.7%
OB(O)c1sccc1/C=N/OCc1ccccc1,human pancreatic trypsin,"enzyme activity, inhibitor",,,,IC50,> 100 µM
Fc1ccc(Nc2nc(NC3CCCCC3)c3cc(C(F)(F)F)ccc3n2)cc1F,β2AR/β1AR ECL3 chimera,"β-arrestin2 recruitment, antagonist, BRET",,with: isoprenaline 1 µM,,pIC50,6.2
C=CC(=O)N1[C@@H](c2ccc3c(c2)OCO3)c2[nH]c3ccccc3c2C[C@H]1C(=O)N1CCN(C)CC1,human cyclin E1 N112C-3xFLAG:CDK2,"co-IP with TMT proteomics, refers to: SDHB",,"concentration not given, P21912",reference: wild type DMSO,relative co-enrichment,146%
CC(C)OCCOCc1ccc(OCC(O)CN(N=O)C(C)C)cc1 (stereo not shown),Salmonella typhimurium,Ames test,TA1535,"1580 µg/plate, 30 % rat S9",reference: solvent control,revertant fold increase,1.6 fold
C[n+]1ccc(/C=N/NC(=O)c2cccc(C(=O)N/N=C/c3cc[n+](C)c4ccccc34)n2)c2ccccc21,telomeric antiparallel G-quadruplex DNA,UV melting,,"6 µM, 10 mM potassium, with: DNA 3 µM",,delta Tm,30.4 °C
Cn1c(=O)[nH]c(=O)c2c1nc(CN1CCN(c3cccc(Cl)c3)CC1)n2Cc1cccc(Cl)c1,PLC-gamma1 rat,,HEK293-A overexpressing PLC-gamma1,"50 µM, 2 h",,IP1 accumulation increase,> 20%
CC1(C)CC(c2cn(C3CCCN(C(=O)c4ccc5c(c4)CCOC5(C)C)CC3)nn2)CO1 (stereo not shown),"FSP1, ancestral","resazurin reduction, inhibitor",,"pH 7.2, with: NADH, resazurin",,IC50,21.5 ± 0.1 µM
Cc1nn(-c2cccc(N)c2)c(=O)c2cnc(Nc3ccc(N4CCNCC4)cc3)nc12,"NEK6 (Homo sapiens, UniProt Q9HC98)","enzyme activity, inhibitor",,,,IC50,3.38 µM
CCN(CC)CC#CCNc1ccnc2cc(Cl)ccc12,Salmonella typhimurium,mini-Ames test,TA97a,"500.0 µg/well, without S9",,revertants per well,0
CN1CCCNC(=O)c2cccc(c2)C(=O)NCCCN(C)CCCNc2cccc3c2C(=O)c2cccc(c2C3=O)NCCC1,SAS,"RNA-Seq, refers to: ARGLU1 mRNA",,"1 µM, 6 h",reference: untreated cells,log2 fold change,-0.823
CN(C)CCOc1cc(NC(=O)c2cccc(C(=O)Nc3cc(OCCN(C)C)c4ccccc4n3)n2)nc2ccccc12,human telomeric G-quadruplex DNA,FRET melting,,"1 µM, pH 7.4, with: 60 mM potassium",,ΔTm,30 ± 0.6 K
Cc1ncsc1-c1ccc(C(C)NC(=O)C2CC(O)CN2C(=O)C(NC(=O)CCCCCCCCCCN2CCCC(Nc3ncc(Cl)c(Nc4ccccc4S(=O)(=O)C(C)C)n3)C2)C(C)(C)C)cc1 (stereo not shown),22Rv1,"RNA-seq, refers to: ZNF697 mRNA",,concentration not given,reference: DMSO,log2 fold change,-1.25
Fc1ccc(Nc2nc(NC3CCCCC3)c3cc(Br)ccc3n2)cc1F,β2AR/β1AR ECL3 chimera,"β-arrestin2 recruitment, antagonist, BRET",,,reference: isoprenaline maximal response,maximal inhibition,-0.8%
NCCOc1cc(NC(=O)c2cc(OCc3cn([C@H]4O[C@@H](CO)[C@H](O)[C@@H](O)[C@@H]4O)nn3)cc(C(=O)Nc3cc(OCCN)c4ccccc4n3)n2)nc2ccccc12,human telomeric G-quadruplex DNA,FRET melting,,"1 µM, pH 7.4, with: 60 mM potassium",,ΔTm,30 ± 1 K
C=CC(=O)Nc1cccc(Cn2ncc3cnc(Nc4cnn(CCOC)c4)nc32)c1,PIK3CA human,"binding, KINOMEscan",,100 nM,lower = stronger binding,percent of control,80%
CC[C@H](C)[C@H](NC(=O)[C@@H]1CCCN1C(=O)[C@@H](NC(=O)[C@H](C)N)C(C)C)C(=O)N[C@@H](C)C(=O)N[C@@H](CCC(N)=O)C(=O)N[C@@H](CCCCN)C(=O)N[C@@H](CO)C(=O)N[C@@H](CCC(=O)O)C(=O)N1CCC[C@H]1C(=O)N[C@@H](Cc1ccccc1)C(=O)N[C@@H](CCCCN)C(=O)N[C@@H](CCCCN)C(=O)N[C@@H](CCCCN)C(=O)N[C@@H](CCCCNC(=O)CCCCCNC(=S)Nc1ccc2c(c1)C(=O)OC21c2ccc(O)cc2Oc2cc(O)ccc21)C(N)=O,XIAP (human),DIABLO peptide pull-down,,"concentration not given, 100-fold competition",reference: empty beads,log2 fold change,8.24
CN(Cc1ccccc1)C(=O)CN1CCN(CC(=O)[O-])CCN(Cc2cccc(C(=O)[O-])n2)CC1.[177Lu+3],,,"mouse, brain","intravenous, 1 h",,tracer uptake,0.08 %ID/g
